Measured values of several laboratories.
Lines come from different studies, so protocols differ. Several values in a cell are separate wells, animals, samples, runs or records. ± marks the error that the study gave.
Ubiquitin carboxyl-terminal hydrolase 39 ZnF-UBD domain: Ubiquitin carboxyl-terminal hydrolase 39, ZnF-UBD domain (Homo sapiens, UniProt Q53GS9)
UniProt Q53GS9, sequence (whole entry, looked up): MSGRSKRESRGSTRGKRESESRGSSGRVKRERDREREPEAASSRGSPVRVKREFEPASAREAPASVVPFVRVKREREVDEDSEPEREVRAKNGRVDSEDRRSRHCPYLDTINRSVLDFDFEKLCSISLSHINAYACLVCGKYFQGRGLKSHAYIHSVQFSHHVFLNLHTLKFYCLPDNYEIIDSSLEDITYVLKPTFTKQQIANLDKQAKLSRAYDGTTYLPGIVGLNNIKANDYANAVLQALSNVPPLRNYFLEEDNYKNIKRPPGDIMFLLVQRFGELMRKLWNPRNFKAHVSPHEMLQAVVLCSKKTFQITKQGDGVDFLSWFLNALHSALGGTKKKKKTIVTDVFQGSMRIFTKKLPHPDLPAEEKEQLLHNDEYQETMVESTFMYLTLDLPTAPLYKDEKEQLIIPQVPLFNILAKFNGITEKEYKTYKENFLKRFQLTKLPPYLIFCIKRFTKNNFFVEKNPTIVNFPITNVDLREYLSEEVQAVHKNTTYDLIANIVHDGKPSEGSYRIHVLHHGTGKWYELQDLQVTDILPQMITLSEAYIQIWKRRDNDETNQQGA

Structure (SMILES) | tested on | assay | system | setting | scale | endpoint | value
OC(CCN1CCCCC1)(c1ccccc1)C1CC2C=CC1C2 (stereo not drawn) |  | resting-state EEG | healthy elderly humans | oral, 4 mg, eyes open, LS mean |  | EEG Beta3-power Pz-O2 | 1.8 µV²
NC(=O)NCCCC[C@H](N)C(=O)O |  | binding, equilibrium dialysis LC-MS |  | 5 µM, thermostabilized A2AR-BRIL construct | relative to: no-protein control, direction not given | z-scored log2 fold change | 0.277
N#Cc1ccn2c(-c3ccncc3)c(-c3ccc(F)cc3)nc2c1 |  | kinase binding, competitor, MIB/MS competition, item: ATG1 | Candida albicans cell lysate | 1 µM | relative to: DMSO | log2 fold change | -0.104
COc1ccc(-c2cncc(N[C@@H](C)c3cccc(NC(=O)c4cncc(C)c4)c3)n2)cc1OC |  | item: rno-miR-340-5p | rat SU5416/hypoxia model, lung | dose not given | relative to: SU5416/hypoxia vehicle | fold change | 0.688
Nc1nc2c(ncn2[C@@H]2O[C@H](CO)[C@@H](O)[C@H]2O)c(=O)[nH]1 |  | binding, equilibrium dialysis LC-MS |  | 5 µM, thermostabilized A2AR-BRIL construct | relative to: no-protein control, direction not given | z-scored log2 fold change | 0.316
Cn1cc(Nc2nc(N)nc(-c3cccc(-n4ccc5cc(C6CC6)cc(F)c5c4=O)c3CO)n2)cn1 |  | CD63 upregulation, anti-IgE-induced | human, multiple ascending dose, whole blood basophils ex vivo | 50 mg twice daily, day 14, 4 h |  | inhibition | 74.8%
COc1cc2c3cc1Oc1cc(ccc1O)C[C@@H]1c4c(cc(OC)c(O)c4Oc4ccc(cc4)C[C@@H]3N(C)CC2)CC[N+]1(C)C |  | nerve stimulation ex vivo | rat diaphragm nerve-muscle preparation | 300 nM | relative to: control | isometric force AUC | 64.3% and 35.1% and 23% and 36.3% and 20.9% and 19.8%
O=C(O)C/C=C/CC(=O)O |  | binding, equilibrium dialysis LC-MS |  | 5 µM, thermostabilized A2AR-BRIL construct | relative to: no-protein control, direction not given | z-scored log2 fold change | 0.228
c1ccc(-c2n[nH]cc2-c2ccnc3ccccc23)nc1 |  | kinase binding, competitor, MIB/MS competition, item: RIM11 | Candida albicans cell lysate | 100 nM | relative to: DMSO | log2 fold change | 1.5
OCC(O)CO |  | ELISA | female Gpd2 knockout mice, serum | oral in drinking water, 5 % w/v, 2 days |  | plasma FGF21 level | 338 pg/mL and 251 pg/mL and 265 pg/mL and 1700 pg/mL
Cn1cc([C@H]2C[C@H]3CSC(N)=N[C@@]3(c3ccc(F)cc3F)CO2)cn1 |  | item: Aβx-40 | wild-type mouse, brain | subcutaneous, 3 mg/kg, 1 h |  | brain Aβ40 level | 2.46 ng/g
C[C@@H](O)CCOC(=O)C[C@@H](C)O |  | item: insulin | human, plasma | 60 min |  | log2 level | 10 ± 1.12 pg/mL
CC(C)NCC(O)c1ccc(O)c(O)c1 (stereo not drawn) |  |  | ventricular cardiomyocytes, C57BL/6 mouse | dose not given, 0.364 s |  | sarcomere length | 1.72 µm
COc1cc2cc(-c3ccc(CC(=O)Nc4cc(C(C)(C)C(F)(F)F)no4)cn3)cnc2cc1OC |  |  | human RET-mutant medullary thyroid cancer | 75 mg, phase I, RECIST 1.1 |  | objective response rate | 29%
Cc1ccc(C(=O)Nc2ccnc(S(N)(=O)=O)c2)c(N2CCCC(F)(F)CC2)n1 |  | behavioural test | rhesus macaque | oral, 1 to 10 mg/kg, 4 h before testing | relative to: vehicle | capsaicin-sensitized response | decreased
N[C@H](CCC(=O)O)C(=O)O |  | binding, equilibrium dialysis LC-MS |  | 5 µM, thermostabilized A2AR-BRIL construct | relative to: no-protein control, direction not given | z-scored log2 fold change | 0.506
Cn1cc(Nc2nccc(-c3ccc4c(c3)CN(C3COC3)CC[C@H]4NC(=O)c3cn(C(C)(C)C)nn3)n2)cn1 |  | item: Estrogen Receptor Signaling | splenic B cells, mouse | in vivo, 30 mg/kg, IgD-activated B cells | relative to: vehicle, positive = activation | pathway activation z-score | 3
CO[C@H]1CC[C@H](N2C(=O)CNc3ncc(-c4ccc(C(C)(C)O)nc4)nc32)CC1 |  | flow cytometry | stimulated B cells, human, blood | 45 mg single dose, 5 h, mean | relative to: baseline | pS6RP change from baseline | -74.5%
NC1(C(=O)N[C@@H](CCO)c2ccc(Cl)cc2)CCN(c2nc[nH]c3nccc2-3)CC1 |  |  | human mCRPC patients | dose not given, with: enzalutamide |  | overall response rate | 25%
Cc1noc(C)c1-c1cc(C(O)(c2ccccn2)c2ccccn2)c2nc(C3CC3)[nH]c2c1 |  | item: HEXIM1 expression | human patients, peripheral blood | dose not given, day 15, 360 h, with: enzalutamide 3 mg |  | maximum induction | 6%
C=CC(=O)N1CCCN(C(=O)c2cc(Sc3cnc(NC(=O)C4CC4)s3)c(C)cc2OC)C[C@H]1C |  | item: CD107a | CD8 T cells, mouse, CT26 tumour | dose not given, monotherapy, with: anti-CD3/anti-CD28 ex vivo 4 h |  | cytotoxic capacity | increased
C[C@H]1C[C@H]2CSC(N)=N[C@@]2(c2nc(NC(=O)c3ccc(OC(F)F)cn3)cs2)CO1 |  | item: total Aβ | healthy adults, plasma | 160 mg single dose, 48 h post-dose | relative to: placebo | percent change from baseline | -53.8%
O=CNCc1ccc(O)cc1 |  | DPPH radical |  | 300 µg/mL |  | radical scavenging | 10.4 ± 1.78%
COc1ccccc1[C@H](Cn1c(=O)n(C(C)(C)C(=O)O)c(=O)c2c(C)c(-c3ncco3)sc21)OC1CCOCC1 |  |  | human | 200 mg, post-treatment |  | blood HDL level | 43.6 ± 9.91 mg/dL
C=CCn1c(=O)c2cnc(Nc3ccc(N4CCN(C)CC4)cc3)nc2n1-c1ccc2c(n1)[C@@](O)(CC)CC2 |  |  | SK-MES-1 xenograft, BALB/c nude mice | oral, 80 mg/kg once daily x 22, day 21 |  | tumour volume difference | 696 ± 22.3 mm3
CN(C(=O)n1cnc(-c2ccc[n+]([O-])c2)c1)C1CCCCC1 |  | item: LEA | human, plasma | 2.5 mg single dose |  | AUC(0-t) | 275 ng·h/mL

Structure (SMILES) | tested on | assay | system | setting | scale | endpoint | value
CC(c1cc2ccccc2s1)N(O)C(N)=O (stereo not drawn) |  | item: docosahexaenoic acid | human whole blood | 3 µM, with: Escherichia coli |  | amount | 45300 ± 11500 pg/mL blood
CCN1CCN(Cc2ccc(Nc3ncc(F)c(-c4cc(F)c5nc6n(c5c4)[C@H](C)CCC6)n3)nc2)CC1 |  |  | human advanced solid tumours | 100 mg, phase Ia monotherapy RECIST 1.1 |  | objective response rate | 0%
COc1cc(Nc2ncc3c(n2)-c2ccc(Cl)cc2C(c2c(F)cccc2OC)=NC3)ccc1C(=O)O |  |  | mouse, NB-EBc1 neuroblastoma xenograft | 2.6 mg/kg | direction not given | median response score | 2
CNCc1cc(-c2ccccc2F)n(S(=O)(=O)c2cccnc2)c1 |  | histamine-stimulated acid secretion | pylorus-ligated rat | oral, 2 mg/kg, with: histamine |  | total acid output | 357 ± 44.9 µEq/3 h
CC1(C)CCC(c2ccc(Cl)cc2)=C(CN2CCN(c3ccc(C(=O)NS(=O)(=O)c4ccc(N[C@H](CCN5CCOCC5)CSc5ccccc5)c(S(=O)(=O)C(F)(F)F)c4)cc3)CC2)C1 |  | cell killing | primary canine neoplastic B cells, dog 28 | 24 h |  | EC50 | 0.398 µM
N[C@@H](COP(=O)(O)O)C(=O)O |  | binding, equilibrium dialysis LC-MS |  | 5 µM, thermostabilized A2AR-BRIL construct | relative to: no-protein control, direction not given | z-scored log2 fold change | -0.00304
N#Cc1ccc2c(-c3ccncc3)c(-c3ccc(F)cc3)nn2c1 |  | kinase binding, competitor, MIB/MS competition, item: HST7 | Candida albicans cell lysate | 1 µM | relative to: DMSO | log2 fold change | -0.161
CC1CCCC(CC(=O)Nc2nnc(S(N)(=O)=O)s2)C1 (stereo not drawn) | Alpha-carbonic anhydrase (Enterococcus faecium, UniProt Q3XYE8) | CO2 hydration, inhibitor, stopped-flow kinetics |  |  |  | Ki | 0.0209 µM
N#Cc1ccc2c(c1)[C@H]1CCCN(C(=O)c3ccc4[nH]cnc4c3)[C@H]1C2 |  | item: fasting C-peptide | human, Phase II trial | oral, 80 mg once daily, day 28, adjusted mean, SE |  | change from baseline | 0.01 pmol/L
C[C@@H](NC(=O)N1C(=O)[C@H](Cc2ccnc(N)c2)[C@H]1C(=O)O)C1CCCCC1 |  |  | human | iv infusion, 1.0 mg/kg/h, 24 h |  | PT AUEC | 1860 h·s
CCCCC1(CCCC)CN(c2ccccc2)c2cc(SC)c(OCC(=O)N[C@@H](C(=O)NCC(=O)O)c3ccccc3)cc2S(=O)(=O)C1 |  | item: 7α-hydroxy-4-cholesten-3-one | human, plasma | 5 mg once daily, day 11 |  | plasma C4 | 49.4 ng/mL
COC(=O)CCc1ccc(OCC(O)CNC(C)C)cc1 (stereo not drawn) |  |  | healthy male humans | concentration not given, 5 min, with: saline |  | diastolic blood pressure | 61.4 mm Hg
O=C(O)[C@H](O)[C@@H](O)[C@H](O)[C@H](O)COP(=O)(O)O |  | binding, equilibrium dialysis LC-MS |  | 5 µM, thermostabilized A2AR-BRIL construct | relative to: no-protein control, direction not given | z-scored log2 fold change | 0.0795
O=c1cc(-c2ccc(O)cc2)oc2c([C@@H]3OC[C@H](O)[C@H](O)[C@H]3O)c(O)c([C@@H]3O[C@H](CO)[C@@H](O)[C@H](O)[C@H]3O)c(O)c12 |  | RT-qPCR | HFpEF mice, AngII-treated, heart | dose not given | relative to: AngII alone | ANP mRNA level | decreased
O=C(O)CNC(=O)Cc1ccccc1 |  |  | ventricular cardiomyocytes, C57BL/6 mouse | dose not given, 0.532 s |  | sarcomere length | 1.62 µm
CC[C@@H](C)[C@H](N)C(=O)O |  | binding, equilibrium dialysis LC-MS |  | 5 µM, thermostabilized A2AR-BRIL construct | relative to: no-protein control, direction not given | z-scored log2 fold change | 0.176
Cc1ccc(C(=O)O)cc1S(=O)(=O)Nc1cccc(C(=O)CCC(=O)O)c1 | Ubiquitin carboxyl-terminal hydrolase 39 ZnF-UBD domain |  |  |  |  | Kd | 942 µM
C[C@H](Oc1ccc(Br)cc1-c1ccon1)C(=O)O |  | muscle velocity recovery cycles | human, tibialis anterior muscle | 1200 mg single dose, 3.5 h post-dose, frequency ramp, first response at 30 Hz |  | latency change | 95.6%
O=C(/C=C/c1ccc(O)c(O)c1/C=C/c1ccc(O)c(O)c1)O[C@H](Cc1ccc(O)c(O)c1)C(=O)O |  |  | isolated myocardial tissue | 1 µM |  | LVEDP | 3.85 mmHg
O=CC[C@H](O)[C@H](O)CO |  | binding, equilibrium dialysis LC-MS |  | 5 µM, thermostabilized A2AR-BRIL construct | relative to: no-protein control, direction not given | z-scored log2 fold change | -0.283
O=P(O)(O)C(Cl)(Cl)P(=O)(O)O |  | immunostaining | mouse, sham-operated, hippocampal fissure | dose not given, day 7 | relative to: total area | Iba1-positive area | 0.67%
NC(=O)c1cnc2[nH]ccc2c1N[C@@H]1[C@@H]2CC3C[C@H]1C[C@@](O)(C3)C2 |  | flow cytometry, item: CD4+ memory T cells | Japanese healthy subjects, peripheral blood | oral, 100 mg twice daily, day 7 |  | change from baseline | -0.72%
O=C(O)CCc1ccccc1 | Ubiquitin carboxyl-terminal hydrolase 39 ZnF-UBD domain |  |  |  |  | Kd | > 1000 µM
Oc1ccc(Br)cc1C=NCCN1CCOCC1 |  | hydroxyl radical scavenging |  | 160 µM |  | inhibition | 35.7%
OCc1ccc(O)cc1 |  | ABTS radical |  | 300 µg/mL |  | radical scavenging | 62.51 ± 0.27%

Some of these lines once more:
Structure (SMILES) | tested on | assay | system | setting | scale | endpoint | value
CC1CCCC(CC(=O)Nc2nnc(S(N)(=O)=O)s2)C1 (stereo not drawn) | Alpha-carbonic anhydrase (Enterococcus faecium, UniProt Q3XYE8) | CO2 hydration, inhibitor, stopped-flow kinetics |  |  |  | Ki | 0.0209 µM
Cc1ccc(C(=O)O)cc1S(=O)(=O)Nc1cccc(C(=O)CCC(=O)O)c1 | Ubiquitin carboxyl-terminal hydrolase 39 ZnF-UBD domain |  |  |  |  | Kd | 942 µM
CC(c1cc2ccccc2s1)N(O)C(N)=O (stereo not drawn) |  | item: docosahexaenoic acid | human whole blood | 3 µM, with: Escherichia coli |  | amount | 45300 ± 11500 pg/mL blood
O=C(O)C/C=C/CC(=O)O |  | binding, equilibrium dialysis LC-MS |  | 5 µM, thermostabilized A2AR-BRIL construct | relative to: no-protein control, direction not given | z-scored log2 fold change | 0.228
NC1(C(=O)N[C@@H](CCO)c2ccc(Cl)cc2)CCN(c2nc[nH]c3nccc2-3)CC1 |  |  | human mCRPC patients | dose not given, with: enzalutamide |  | overall response rate | 25%
